Measurements of several laboratories.
Protocols differ between the studies behind these lines. “And” joins repeats or separate records; there may be more than shown. ± marks the error that the study gave.
UniProt Q8BLF1, sequence (whole entry, looked up): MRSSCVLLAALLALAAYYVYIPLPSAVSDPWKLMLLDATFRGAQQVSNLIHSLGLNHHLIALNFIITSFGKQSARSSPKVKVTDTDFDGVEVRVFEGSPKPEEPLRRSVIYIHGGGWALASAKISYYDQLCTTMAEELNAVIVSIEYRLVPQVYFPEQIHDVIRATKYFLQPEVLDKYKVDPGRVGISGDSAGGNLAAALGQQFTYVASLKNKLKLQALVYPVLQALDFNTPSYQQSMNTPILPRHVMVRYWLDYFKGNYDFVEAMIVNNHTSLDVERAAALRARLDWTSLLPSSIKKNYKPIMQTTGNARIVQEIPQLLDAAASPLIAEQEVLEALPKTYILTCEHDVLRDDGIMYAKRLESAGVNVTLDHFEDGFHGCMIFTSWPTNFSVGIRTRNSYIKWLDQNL
UniProt Q07912, sequence (whole entry, looked up): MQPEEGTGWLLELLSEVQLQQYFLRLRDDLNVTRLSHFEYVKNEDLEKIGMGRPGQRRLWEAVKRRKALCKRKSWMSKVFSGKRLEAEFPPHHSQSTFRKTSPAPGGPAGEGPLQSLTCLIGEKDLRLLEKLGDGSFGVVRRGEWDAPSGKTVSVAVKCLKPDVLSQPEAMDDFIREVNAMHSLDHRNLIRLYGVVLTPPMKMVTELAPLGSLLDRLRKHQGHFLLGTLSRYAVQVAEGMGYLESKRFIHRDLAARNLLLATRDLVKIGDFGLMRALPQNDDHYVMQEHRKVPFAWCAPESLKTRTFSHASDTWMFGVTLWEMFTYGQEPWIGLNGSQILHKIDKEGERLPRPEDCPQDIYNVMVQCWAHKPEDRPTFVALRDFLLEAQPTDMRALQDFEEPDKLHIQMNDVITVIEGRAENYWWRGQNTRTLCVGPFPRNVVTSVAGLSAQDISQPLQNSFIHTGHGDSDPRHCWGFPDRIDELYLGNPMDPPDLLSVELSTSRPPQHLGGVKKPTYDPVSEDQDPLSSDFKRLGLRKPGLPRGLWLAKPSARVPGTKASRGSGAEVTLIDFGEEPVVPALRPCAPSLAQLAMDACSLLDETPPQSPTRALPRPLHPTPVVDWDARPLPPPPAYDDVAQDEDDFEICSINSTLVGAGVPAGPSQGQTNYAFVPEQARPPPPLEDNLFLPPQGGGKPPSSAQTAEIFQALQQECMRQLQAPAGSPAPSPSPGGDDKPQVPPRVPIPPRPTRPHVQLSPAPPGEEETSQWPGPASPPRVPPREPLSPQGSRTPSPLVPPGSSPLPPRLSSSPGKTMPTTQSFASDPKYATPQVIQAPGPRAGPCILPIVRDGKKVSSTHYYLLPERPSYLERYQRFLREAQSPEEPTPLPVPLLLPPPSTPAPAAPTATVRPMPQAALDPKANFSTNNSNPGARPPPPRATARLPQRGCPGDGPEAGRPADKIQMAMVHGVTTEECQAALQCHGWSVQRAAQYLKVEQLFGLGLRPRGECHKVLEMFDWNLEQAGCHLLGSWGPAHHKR
UniProt P10721, sequence (whole entry, unmodified, looked up): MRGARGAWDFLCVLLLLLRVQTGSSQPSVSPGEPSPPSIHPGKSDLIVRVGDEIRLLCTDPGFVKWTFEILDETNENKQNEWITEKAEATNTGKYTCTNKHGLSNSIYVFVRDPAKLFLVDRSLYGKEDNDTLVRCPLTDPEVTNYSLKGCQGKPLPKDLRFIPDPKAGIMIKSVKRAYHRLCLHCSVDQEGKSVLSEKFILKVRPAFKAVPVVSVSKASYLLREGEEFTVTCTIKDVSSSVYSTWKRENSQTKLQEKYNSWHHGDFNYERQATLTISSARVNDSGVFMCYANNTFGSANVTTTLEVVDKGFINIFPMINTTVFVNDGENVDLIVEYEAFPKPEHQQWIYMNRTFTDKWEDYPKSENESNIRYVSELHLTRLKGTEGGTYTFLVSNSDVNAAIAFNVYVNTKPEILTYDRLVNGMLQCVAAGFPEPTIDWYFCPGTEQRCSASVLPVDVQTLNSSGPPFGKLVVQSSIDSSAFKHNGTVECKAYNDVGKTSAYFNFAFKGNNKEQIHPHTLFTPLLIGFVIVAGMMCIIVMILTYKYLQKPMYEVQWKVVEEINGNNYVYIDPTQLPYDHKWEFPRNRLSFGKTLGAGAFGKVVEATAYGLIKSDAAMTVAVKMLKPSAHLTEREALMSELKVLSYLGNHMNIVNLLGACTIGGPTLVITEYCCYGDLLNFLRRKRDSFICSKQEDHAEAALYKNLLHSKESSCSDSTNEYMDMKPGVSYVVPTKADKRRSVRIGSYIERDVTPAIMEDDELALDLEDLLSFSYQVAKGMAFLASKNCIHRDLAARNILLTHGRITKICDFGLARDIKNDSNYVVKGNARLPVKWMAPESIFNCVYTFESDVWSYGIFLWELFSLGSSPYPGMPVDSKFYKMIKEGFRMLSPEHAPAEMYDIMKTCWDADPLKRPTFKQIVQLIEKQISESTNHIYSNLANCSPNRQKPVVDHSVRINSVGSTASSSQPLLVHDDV
UniProt O14965, sequence (whole entry, looked up): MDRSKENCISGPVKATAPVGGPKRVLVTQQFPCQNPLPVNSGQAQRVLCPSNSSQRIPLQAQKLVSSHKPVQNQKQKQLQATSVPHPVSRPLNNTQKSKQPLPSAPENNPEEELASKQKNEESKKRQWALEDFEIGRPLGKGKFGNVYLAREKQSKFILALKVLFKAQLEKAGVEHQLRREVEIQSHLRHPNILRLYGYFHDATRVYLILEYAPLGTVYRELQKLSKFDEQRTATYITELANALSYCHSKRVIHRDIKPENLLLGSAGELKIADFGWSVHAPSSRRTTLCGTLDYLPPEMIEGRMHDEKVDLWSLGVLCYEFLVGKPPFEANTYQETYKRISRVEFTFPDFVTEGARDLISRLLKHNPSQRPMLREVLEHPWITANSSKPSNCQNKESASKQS
UniProt P21554, sequence (whole entry, unmodified, looked up): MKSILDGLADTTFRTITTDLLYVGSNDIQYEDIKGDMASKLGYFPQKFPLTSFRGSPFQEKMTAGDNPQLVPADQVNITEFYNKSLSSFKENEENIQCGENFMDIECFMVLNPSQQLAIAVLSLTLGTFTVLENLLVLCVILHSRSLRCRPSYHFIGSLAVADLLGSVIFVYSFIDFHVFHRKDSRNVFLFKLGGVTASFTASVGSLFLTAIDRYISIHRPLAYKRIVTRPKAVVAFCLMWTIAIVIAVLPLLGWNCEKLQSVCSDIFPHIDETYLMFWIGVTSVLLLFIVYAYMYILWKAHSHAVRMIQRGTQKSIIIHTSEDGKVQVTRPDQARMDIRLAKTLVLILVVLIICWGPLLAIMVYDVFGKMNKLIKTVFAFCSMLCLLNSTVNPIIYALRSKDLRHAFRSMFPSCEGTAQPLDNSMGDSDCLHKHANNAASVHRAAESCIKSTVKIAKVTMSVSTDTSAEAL
UniProt Q15910, sequence (whole entry, looked up): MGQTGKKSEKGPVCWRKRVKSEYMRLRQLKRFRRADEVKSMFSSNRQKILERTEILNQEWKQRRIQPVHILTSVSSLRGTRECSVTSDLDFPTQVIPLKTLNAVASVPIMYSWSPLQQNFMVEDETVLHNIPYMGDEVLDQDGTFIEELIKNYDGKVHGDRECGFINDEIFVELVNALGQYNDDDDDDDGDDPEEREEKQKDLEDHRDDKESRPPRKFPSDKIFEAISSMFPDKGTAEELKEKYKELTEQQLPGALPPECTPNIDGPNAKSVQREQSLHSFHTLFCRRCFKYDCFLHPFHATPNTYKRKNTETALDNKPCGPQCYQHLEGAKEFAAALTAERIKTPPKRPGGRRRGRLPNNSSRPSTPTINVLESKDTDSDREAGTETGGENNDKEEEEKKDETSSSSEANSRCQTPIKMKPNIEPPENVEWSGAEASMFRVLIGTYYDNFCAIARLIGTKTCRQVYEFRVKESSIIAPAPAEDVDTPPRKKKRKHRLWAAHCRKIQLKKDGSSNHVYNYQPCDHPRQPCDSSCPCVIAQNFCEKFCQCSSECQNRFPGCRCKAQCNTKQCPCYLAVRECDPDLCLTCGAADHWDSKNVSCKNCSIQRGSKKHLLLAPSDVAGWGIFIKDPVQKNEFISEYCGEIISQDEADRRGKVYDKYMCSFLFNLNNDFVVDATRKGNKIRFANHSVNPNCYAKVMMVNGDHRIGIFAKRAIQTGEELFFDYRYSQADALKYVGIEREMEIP
UniProt P06401, sequence (whole entry, looked up): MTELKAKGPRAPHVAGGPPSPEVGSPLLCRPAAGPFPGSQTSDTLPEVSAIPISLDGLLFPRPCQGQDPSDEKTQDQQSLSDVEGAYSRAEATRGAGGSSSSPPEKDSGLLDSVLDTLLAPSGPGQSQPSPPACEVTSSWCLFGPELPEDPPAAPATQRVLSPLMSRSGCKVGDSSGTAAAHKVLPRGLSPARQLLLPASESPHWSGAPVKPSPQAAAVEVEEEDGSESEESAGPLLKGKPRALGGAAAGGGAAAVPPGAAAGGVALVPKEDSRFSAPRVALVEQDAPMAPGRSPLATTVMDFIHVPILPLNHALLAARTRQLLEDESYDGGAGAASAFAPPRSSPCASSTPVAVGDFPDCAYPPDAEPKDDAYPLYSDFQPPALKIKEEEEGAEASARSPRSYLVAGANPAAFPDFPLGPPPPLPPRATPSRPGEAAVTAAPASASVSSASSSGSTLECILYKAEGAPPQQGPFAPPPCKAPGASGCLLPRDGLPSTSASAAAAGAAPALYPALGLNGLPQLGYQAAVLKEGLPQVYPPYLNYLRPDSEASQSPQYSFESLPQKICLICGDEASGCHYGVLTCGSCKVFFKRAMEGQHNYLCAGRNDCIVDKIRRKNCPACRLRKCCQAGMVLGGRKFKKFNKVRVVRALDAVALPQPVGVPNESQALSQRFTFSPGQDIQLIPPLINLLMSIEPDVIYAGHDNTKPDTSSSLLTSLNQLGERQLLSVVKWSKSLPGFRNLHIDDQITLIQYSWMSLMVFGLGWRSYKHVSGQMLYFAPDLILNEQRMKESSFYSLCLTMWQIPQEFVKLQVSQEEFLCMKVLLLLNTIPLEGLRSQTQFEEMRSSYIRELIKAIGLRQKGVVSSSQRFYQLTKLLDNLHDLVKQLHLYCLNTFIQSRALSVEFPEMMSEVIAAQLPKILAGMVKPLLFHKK

CN(C)[C@H]1C[C@@]23CC[C@@]4(O2)C(=CC[C@]2(C)[C@@H](c5ccc6ccncc6c5)CC[C@H]24)C=C3[C@@H](O)[C@@H]1O — inhibition (Ephrin type-B receptor 4 (EPHB4, Homo sapiens, UniProt P54760); ATP probe labelling, inhibitor, KiNativ profiling; 0.1 µM): -7.7%
N[C@H](C(=O)N1CCCC1)C1CCN(c2nccc3c(-c4ncc(Cl)cc4Cl)cccc23)CC1 — inhibition (Rho-associated protein kinase 1 (ROCK1, Homo sapiens, UniProt Q13464); kinase activity, inhibitor; 10 µM, with: ATP 1 mM): -0.4%
CC(C)[C@H]1NC(=O)C[C@H]2/C=C/CCSSC[C@@H](NC1=O)C(=O)N[C@H](Cc1cccc3ccccc13)C(=O)NCC(=O)O2 — inhibition (Aurora kinase A, with TPX2 (AURKA, Homo sapiens, UniProt O14965); 10 µM): -1.2%
Cc1ccc2c(C(C[N+](=O)[O-])c3cccs3)c(-c3ccccc3)[nH]c2c1 (stereo not shown) — Emax (Cannabinoid receptor 1 (CNR1, Homo sapiens, UniProt P21554, Y172A); Gαi1-γ2 dissociation, BRET): 78.5 ± 2.35%
CS(C)(=O)=Nc1ccc(-c2ccc(-c3nc4cc(O[C@@H]5CO[C@H]6[C@@H]5OC[C@H]6O)[nH]c4cc3F)cc2)cc1 — inhibition (Progesterone receptor (PGR, Homo sapiens, UniProt P06401); calcium signal, antagonist; 10 µM): 11%
Nc1ccc(/C=C/C(=O)N2CCc3c(oc4c(-c5ccc(F)cc5)cc(-c5ccc(C(=O)N6CCC(F)(F)CC6)cn5)cc34)C2)cn1 — remaining binding (Mast/stem cell growth factor receptor Kit (KIT, Homo sapiens, UniProt P10721, D816V); binding, competition with immobilised ligand; 1 µM): 100%
CSc1cc(C)[nH]c(=O)c1CNC(=O)c1c(C)n([C@H](C)C2CCN(CC(F)(F)F)CC2)c2ccccc12 — residence time (Histone-lysine N-methyltransferase EZH2 (EZH2, Homo sapiens, UniProt Q15910); binding, TR-FRET; with: H3K27me3 activating peptide): 3120 min
CC(C)CC(O)(CC(C)C)c1cn(C(=O)N2CCCC2)nn1 — SILAC activity ratio (Neutral cholesterol ester hydrolase 1 (Mus musculus, UniProt Q8BLF1); probe labelling, inhibitor, competitive ABPP-SILAC, item: Aadacl1; mouse T cells; concentration not given, 4 h, single peptide; baseline: treated over DMSO cells, lower = stronger inhibition): 1.21 and 1 and 1.19 and 1.28 and 1.4
O=C1NC(=O)c2c1c1cc(F)c[n+]3c1c1c2c2cc(O)ccc2[n]1[Ru-4]312([N]=C=S)[S+]3CC[S+]1CC[S+]2CC3 (stereo not shown) — remaining activity (Activated CDC42 kinase 1 (TNK2, Homo sapiens, UniProt Q07912); enzyme activity; 100 nM, human enzyme, with: 10 µM ATP; baseline: untreated): 53%
Cc1sc2c(c1C)C(c1ccc(Cl)cc1)=N[C@@H](CC(=O)OC(C)(C)C)c1nnc(C)n1-2 — ΔG (Bromodomain-containing protein 3, BD1 (BRD3, Homo sapiens, UniProt Q15059); isothermal titration calorimetry; 15 °C, reverse titration): -6.57 kcal/mol
